Measurements gathered from unrelated publications.
Protocols differ between the studies behind these lines. Values joined by “and” are separate records of one study, mostly repeats; a detail may differ. ± marks the error that the study gave. Converted amounts (≈) assume the structure as drawn.

For `O=C(Nc1ccc([N+](=O)[O-])cc1Cl)c1cc(Cl)ccc1O`, the IC50 was 370 nM (human alphaherpesvirus 1; live-cell GFP imaging; primary human fibroblasts, K26 GFP).
The growth of `COC(=O)[C@H](Cc1c[nH]c2ccccc12)NCc1cc2ccccc2nc1SC` is reported as 51.1% (Pseudomonas aeruginosa; 32 µg/mL, with: pentamidine 100 µM; baseline: control).
Under “z-scored log2 fold change”, `NCCC(=O)N[C@@H](Cc1cnc[nH]1)C(=O)O` is recorded as 0.0659 (binding, equilibrium dialysis LC-MS; 5 µM, thermostabilized A2AR-BRIL construct; baseline: no-protein control, direction not given).
`CCCCCCc1ccc(Oc2ccccc2Cl)c(O)c1` has a CFU reduction of 0.78 log10 CFU (Mycobacterium tuberculosis; mouse, rapid infection model, spleen; 25 mg/kg twice daily, SMEDDS formulation).
The median lifespan of `CC(=O)N1CCC(C(=O)N2CCN3C(=O)c4cc(-c5ccccc5)ccc4NC(=O)C3C2)CC1` (stereo not drawn) is reported as 29 days (Caenorhabditis elegans; N2; 100 µM).
`CC(=O)O[C@H](CC(=O)[O-])C[N+](C)(C)C` — result for “z-scored log2 fold change”: 0.112 (binding, equilibrium dialysis LC-MS; 5 µM, thermostabilized A2AR-BRIL construct; baseline: no-protein control, direction not given).
For `CC(O)CN` (stereo not drawn), “relative parasite number” read 0.957 ± 0.104 (Cryptosporidium parvum; image-based; HCT-8; 1 mM, 24 h post-infection; baseline: PBS).
The IC50 of `Cc1cccc(C)c1N(CC(=O)Nc1ccc(-c2ncon2)cc1)C(=O)C1CCS(=O)(=O)CC1` is reported as 240 nM (human alphaherpesvirus 1; live-cell GFP imaging; primary human keratinocytes, K26 GFP).
`N=C(N)c1ccc(OCc2ccc(-c3ccccc3)cc2COc2ccc(C(=N)N)cc2)cc1` — result for “MIC of compound in combination”: 6.25 µg/mL (Escherichia coli; checkerboard; BW25113; concentration not given, lowest-FICI combination, with: rifampicin).
`C=CC(=O)N1CC/C(=C\c2ccc(F)c([N+](=O)[O-])c2)C(=O)/C(=C/c2ccc(F)c([N+](=O)[O-])c2)C1` gave an IC50 of 4430 nM (human alphaherpesvirus 1; live-cell GFP imaging; primary human keratinocytes, K26 GFP).
For `CC(C)Nc1nc2cc(Cl)c(Cl)cc2n1[C@H]1O[C@@H](CO)[C@H](O)[C@@H]1O`, “confirmed CMV viremia clearance” read 74.8% (human betaherpesvirus 5; human CMV patients; dose not given, week 8, AURORA exposure-response).
For `O=c1c(-c2nc3ccccc3s2)cc2c(n1NS(=O)(=O)c1ccc(Cl)cc1)CCCC2`, the reduction was 0% (Coxsackievirus B4; viral replication, plaque reduction; BGM cells; non-toxic concentration).
For `CNC(C)C1CCC(N)C(OC2C(N)CC(N)C(OC3OCC(C)(O)C(NC)C3O)C2O)O1` (stereo not drawn), the MIC was 1 µg/mL (≈ 2.09 µM) (Salmonella enterica serovar Derby; broth microdilution; clinical isolate RKI-No 270/14).
Under “concentration for maximal kill rate”, `COc1ccc(NC(=O)N2CCCCN3[C@H](CN(C)C)[C@H](c4ccc(C#Cc5ccccc5)cc4)[C@@H]3C2)cc1` is recorded as 3 × EC90 (Cryptosporidium parvum; HCT-8).
For `CN[C@H](CC(C)C)C(=O)N[C@H]1C(=O)N[C@@H](CC(N)=O)C(=O)N[C@H]2C(=O)N[C@H]3C(=O)N[C@H](C(=O)N[C@H](C(=O)O)c4cc(O)cc(O)c4-c4cc3ccc4O)[C@H](O)c3ccc(c(Cl)c3)Oc3cc2cc(c3O[C@@H]2O[C@H](CO)[C@@H](O)[C@H](O)[C@H]2O[C@H]2C[C@](C)(N)[C@H](O)[C@H](C)O2)Oc2ccc(cc2Cl)[C@H]1O`, the isolates inhibited was 75.4% (coagulase-negative staphylococci; concentration not given, MIC ≤2 µg/mL).
`COC(=O)[C@@H](NCc1cc2ccccc2nc1OCc1ccccc1)C(C)C` gave a growth of 96.4% (Pseudomonas aeruginosa; 2 µg/mL, without pentamidine; baseline: control).
`CO[C@H]1[C@H](O[C@H]([C@H]2O[C@@H](n3ccc(=O)[nH]c3=O)[C@H](O)[C@@H]2O)[C@H](NCCCNC(=O)[C@@H](NC(=O)[C@@H](NC(=O)N[C@H](C(=O)O)C(C)C)[C@@H]2CCN=C(N)N2)[C@@H](O)C(C)C)C(=O)O)O[C@H](CN)[C@H]1O` has an MIC50 of over 35 µg/mL (Cryptococcus gattii; alamar blue; C17).
Under “relative parasite number”, `COC(=O)[C@@H](N)Cc1ccc(O)cc1` is recorded as 0.853 ± 0.06 (Cryptosporidium parvum; image-based; HCT-8; 1 mM, 24 h post-infection; baseline: PBS).
With `Cc1nc(N(C)C(=O)Cc2ccc(-c3ccccn3)cc2)sc1S(N)(=O)=O` the IC50 was 190 nM (human alphaherpesvirus 1; viral replication, GFP signal; K26 GFP, 3D skin equivalent, air-liquid; 48 h).
The inhibition of `CCCc1nn(C)c2c(=O)[nH]c(-c3cc(S(=O)(=O)N4CCN(C)CC4)ccc3OCC)nc12` is reported as -31.3% and -15.5% (Cryptosporidium parvum; parasite growth, immunofluorescence imaging; HCT-8, Iowa; 74.1 nM).
The growth of `COC(=O)[C@@H](CCSC)NCc1cc2ccccc2nc1SC` is reported as 70.9% (Pseudomonas aeruginosa; 64 µg/mL, with: pentamidine 50 µM; baseline: control).
With `O=C(/C=C\n1cnc(-c2cc(C(F)(F)F)cc(C(F)(F)F)c2)n1)NNc1ccccn1` the selectivity index was 1 (human alphaherpesvirus 1; primary human fibroblasts, K26 GFP; baseline: CC50 over IC50).
With `CC1(C)S[C@@H]2[C@H](NC(=O)[C@H](N)c3ccccc3)C(=O)N2[C@H]1C(=O)O` the MIC was over 16 µg/mL (Salmonella enterica serovar Derby; broth microdilution; clinical isolate RKI-No 436/14).
`[N-]=[N+]=N[C@]1(CO)O[C@@H](n2ccc(N)nc2=O)[C@@H](F)[C@@H]1O` has an EC50 of 95 nM (murine hepatitis virus; viral genome copies, RT-qPCR; DBT-9, A59 wild type).
With `CN[C@H](CC(C)C)C(=O)N[C@H]1C(=O)N[C@@H](CC(N)=O)C(=O)N[C@H]2C(=O)N[C@H]3C(=O)N[C@H](C(=O)N[C@H](C(=O)O)c4cc(O)cc(O)c4-c4cc3ccc4O)[C@H](O)c3ccc(c(Cl)c3)Oc3cc2cc(c3O[C@@H]2O[C@H](CO)[C@@H](O)[C@H](O)[C@H]2O[C@H]2C[C@](C)(N)[C@H](O)[C@H](C)O2)Oc2ccc(cc2Cl)[C@H]1O` the MBC was 4 µg/mL (≈ 2.76 µM) (Staphylococcus epidermidis; broth microdilution; methicillin-resistant isolates).
For `C[C@@H]1OC(=O)[C@H](Cc2ccccc2)[C@H]1O`, the EC50 was over 9.1 µg/mL (Daphnia magna; immobilisation, semi-static water exposure; 48 h).
`COc1ccc(-c2nc(N3CCOCC3)c3sc(CN(C)c4ncc(C(=O)NO)cn4)cc3n2)cn1` has an IC50 of 950 nM (human alphaherpesvirus 1; live-cell GFP imaging; primary human keratinocytes, K26 GFP).
The FICI of `N=C(N)c1ccc(OCc2cc(Br)cc(COc3ccc(C(=N)N)cc3)c2)cc1` is reported as 0.25 (Escherichia coli; checkerboard; mcr-2 polymyxin-resistant; unit not given, with: rifampicin; lower = stronger synergy).
With `CC(=Nc1ccc(N=Cc2cnccn2)cc1)N(C)C` the curative dose was 25 mg/kg (Necator americanus; infected hamster; oral, single dose).
For `CC(C)n1ncc2c(C(=O)NCC3(C)CNC3)cc(C3CC3)nc21`, the virus titre was 300 PFU/mL and 400 PFU/mL (Enterovirus D68; time-of-addition; RD, US/MO/14-18947; 3 µM, 3 to 3 h post infection).
For `C[C@H](CCC(=O)O)[C@H]1CC[C@H]2[C@@H]3CC[C@@H]4C[C@H](O)CC[C@]4(C)[C@H]3C[C@H](O)[C@]12C`, “parasite growth ratio” read 0.557 ± 0.185 (Cryptosporidium parvum; HCT-8; 0.1 mM, 24 h; baseline: PBS).
Under “MIC in combination”, `N=C(N)c1ccc(OCc2ccccc2COc2ccc(C(=N)N)cc2)cc1` is recorded as 25 µg/mL (Escherichia coli; BW25113; concentration not given, lowest-FICI combination, with: erythromycin).
For `CCn1c(=O)c(-c2cc[nH]n2)cc2c(C)nc(N)nc21`, viral titre read “decreased” (Coxsackievirus B4; viral replication; HeLa, CVB4-7; concentration not given, 20 h).
`CO[C@H]1/C=C/O[C@@]2(C)Oc3c(C)c(O)c4c(O)c(c(/C=N/N5CCN(C)CC5)c(O)c4c3C2=O)NC(=O)/C(C)=C\C=C\[C@H](C)[C@H](O)[C@@H](C)[C@@H](O)[C@@H](C)[C@H](OC(C)=O)[C@@H]1C` — result for “bacterial load reduction”: about 2 log10 CFU (Mycobacterium tuberculosis; Mus musculus, spleen; 10 mg/kg, suspended in PBS, monotherapy).
The inhibition of `Cc1cc(OC(C)C)ccc1C(=O)C(C)(C)NC(=O)c1sccc1C` is reported as 75.6 ± 3.6% (Botrytis cinerea; mycelial growth; B05.10; 0.03 µg/mL).
`Nc1nc(-c2ccccc2)nc2[nH]nc(Nc3ccc(C(F)(F)F)cc3)c12` gave a clinical score of 0.1 (coxsackievirus B3; 31-1-93, NMRI mice, CVB3 chronic myocarditis; oral, 100 mg/kg twice daily, day 5, dosed days 0 to 6, score scale 0 to 7; direction not given).

Excerpt of the above:
For `C[C@H](CCC(=O)O)[C@H]1CC[C@H]2[C@@H]3CC[C@@H]4C[C@H](O)CC[C@]4(C)[C@H]3C[C@H](O)[C@]12C`, “parasite growth ratio” read 0.557 ± 0.185 (Cryptosporidium parvum; HCT-8; 0.1 mM, 24 h; baseline: PBS).
Under “MIC in combination”, `N=C(N)c1ccc(OCc2ccccc2COc2ccc(C(=N)N)cc2)cc1` is recorded as 25 µg/mL (Escherichia coli; BW25113; concentration not given, lowest-FICI combination, with: erythromycin).
For `CCn1c(=O)c(-c2cc[nH]n2)cc2c(C)nc(N)nc21`, viral titre read “decreased” (Coxsackievirus B4; viral replication; HeLa, CVB4-7; concentration not given, 20 h).
`CO[C@H]1/C=C/O[C@@]2(C)Oc3c(C)c(O)c4c(O)c(c(/C=N/N5CCN(C)CC5)c(O)c4c3C2=O)NC(=O)/C(C)=C\C=C\[C@H](C)[C@H](O)[C@@H](C)[C@@H](O)[C@@H](C)[C@H](OC(C)=O)[C@@H]1C` — result for “bacterial load reduction”: about 2 log10 CFU (Mycobacterium tuberculosis; Mus musculus, spleen; 10 mg/kg, suspended in PBS, monotherapy).
